{"data": "Published values pooled from the literature", "target": "Serine/threonine-protein kinase Sgk2 (SGK2, Homo sapiens, UniProt Q9HBY8)", "note": "Each line is one published result; not all experiments were run side by side. Values joined by “and” are separate records of one study, mostly repeats; a detail may differ."}
{"Compound": "CN1CCN(Cc2ccc(-c3ccc(CO[C@H]4CCC[C@@H]4NC(=O)c4cc(-c5cnn(C)c5)cnc4N)cc3)cc2)CC1", "assay": "enzyme activity, inhibitor", "conditions": "0.1 µM", "endpoint": "inhibition", "result": "9%"}
{"Compound": "C=CC(=O)Nc1cccc(-c2cnc3[nH]cc(C(=O)NC(C)(C)C)c3n2)c1", "assay": "enzyme activity, inhibitor", "conditions": "0.1 µM", "endpoint": "inhibition", "result": "3%"}
{"Compound": "CC(C)=CC1OC(C)(C)C2C=C3C(=O)C(Cl)=CC(O)C3C3C(O)C4OC4C(=O)C132 (stereo not drawn)", "assay": "cell-free assay, competition with immobilised ligand", "conditions": "10 µM", "endpoint": "remaining binding", "result": "75%"}
{"Compound": "CNC(=O)C[C@H](Cc1ccc(C#N)cc1)NC(=O)c1cc(-c2ccc(CN[C@H](C)c3ccc(C)cc3)o2)ccc1Cl", "assay": "enzyme activity, inhibitor", "conditions": "1 µM", "endpoint": "activity vs control", "result": "104%"}
{"Compound": "C=CC(=O)N1Cc2nc(-c3cc(-c4cc(Cl)cnc4Cl)c(F)cc3F)n(-c3ccncn3)c2C1", "assay": "cell-free assay, inhibitor", "conditions": "1 µM", "endpoint": "inhibition", "result": "1.9%"}
{"Compound": "COc1cc(Nc2nccc(-c3cnn4nc(OC)ccc34)n2)cc(C(F)(F)F)c1", "assay": "binding, competition with immobilised ligand", "conditions": "1 µM", "endpoint": "remaining binding", "result": "76%"}
{"Compound": "CNC(=O)C1CCN(c2cc(C)c(F)cc2NC(=O)c2ccc(-c3cc(O)ccc3C)c(C)c2)CC1", "assay": "binding, competition with immobilised ligand", "conditions": "1 µM", "endpoint": "remaining binding", "result": "100%"}
{"Compound": "NC(=O)[C@@H](O)C[C@H]1CCc2sc3ncnc(O[C@H]4CC[C@H](N5CCOCC5)CC4)c3c21", "assay": "enzyme activity, inhibitor", "conditions": "10 µM", "endpoint": "inhibition", "result": "7%"}
{"Compound": "Nc1ncc2c(n1)-c1c([nH]c3ccc(C4=CCOCC4)cc13)CCC2", "assay": "binding, competition with immobilised ligand", "conditions": "1 µM", "endpoint": "remaining binding", "result": "100%"}
{"Compound": "C=CC(=O)N1CCc2ccc(-n3c(=O)ccc4cnc5ccc(-c6cnn(C)c6)cc5c43)cc21", "assay": "KINOMEscan", "conditions": "1 µM", "how to read": "relative to: DMSO control", "endpoint": "remaining binding", "result": "100%"}
{"Compound": "COc1c(Cl)cccc1Nc1c(-c2ccncc2C#C[C@@]2(C)CCCN2C(=O)/C=C/CN(C)C)[nH]c2c1C(=O)NCC2", "assay": "binding, competition with immobilised ligand", "conditions": "3 µM", "endpoint": "remaining binding", "result": "64%"}
{"Compound": "Cc1cccc(O[C@H]2CCC[C@@H](C(C)CNCc3ccncc3)C2)c1 (relative stereo)", "assay": "enzyme activity, inhibitor", "conditions": "1 µM", "endpoint": "inhibition", "result": "-5%"}
{"Compound": "Cc1ccc(C(=O)Nc2ccc(CN3CCN(C)CC3)c(C(F)(F)F)c2)cc1C#Cc1cnc2cccnn12", "assay": "target engagement, NanoBRET", "test system": "human cells", "endpoint": "upper asymptote", "result": 1530}
{"Compound": "CNC1C[S+]2CC[S+]3CC[S+](C1)[Ru-4]321([N]=C=S)[n]2c3ccc(OC)cc3c3c4c(c5cc(F)c[n+]1c5c32)C(=O)NC4=O (stereo not drawn)", "assay": "KinomeScan", "conditions": "0.1 µM", "how to read": "relative to: untreated", "endpoint": "remaining binding", "result": "86%"}
{"Compound": "COCC12C(=O)NC3C4(C(OC)CC1O)C1CC5(O)C(OC)C(O)C(OC(C)=O)(C1C5OC(=O)c1ccccc1)C3(O)C(OC)C24 (stereo not drawn)", "assay": "kinase activity, inhibitor, ProQinase kinase profiling", "conditions": "25 µM", "how to read": "relative to: control", "endpoint": "remaining activity", "result": "118% and 97%"}
